Assay results gathered from unrelated publications.
Parts stem from different laboratories: compare values within a part only.

Set 1
Target: RING finger protein unkempt homolog, zinc fingers 1-6, GST-SBP tag (UNK, Homo sapiens, UniProt Q9C0B0, residues 30-357)
Method: RNA Bind-n-Seq
Molecule type: RNA
Sample: in vitro
Concentration: not given
Setting: RNA with constant flanks, human and mouse sites, ends assumed
Reference: input RNA pool
Direction: higher = stronger binding
Quantity: bound/input enrichment
Residues (chain): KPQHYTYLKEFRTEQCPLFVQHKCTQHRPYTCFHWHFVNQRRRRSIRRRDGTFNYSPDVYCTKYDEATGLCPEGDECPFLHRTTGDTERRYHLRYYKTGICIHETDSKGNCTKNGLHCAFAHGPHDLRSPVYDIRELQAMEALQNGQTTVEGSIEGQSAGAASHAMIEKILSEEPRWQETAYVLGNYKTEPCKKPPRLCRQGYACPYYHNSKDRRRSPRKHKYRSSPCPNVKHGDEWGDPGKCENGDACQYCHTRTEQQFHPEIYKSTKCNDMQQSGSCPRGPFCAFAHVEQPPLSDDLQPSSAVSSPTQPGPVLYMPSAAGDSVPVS
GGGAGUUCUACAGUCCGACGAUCACGGCCUCUGAGACCAUGGUGUGCCAAUCCUCUGCAGAGCAGUCACUCACCCGACAGGACAUCACCCAGCUGGAGGAGAGCAUUCGGGCAGAUACACCUUCUGGGGAUGAGCAGGAGCCCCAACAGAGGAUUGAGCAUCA: 0.421 ratio
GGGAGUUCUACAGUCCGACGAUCGCACAUGAUUUGGGAAUUACACUUUGUGACAUGGAUGAAUCUGCACUGACCCUUGGUACAAUAGAUGUUUCUUAUCUGCCACAUUCAUCAGAAUACAGUGUUGGUCGAUGUAAGCACACACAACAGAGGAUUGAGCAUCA: 0.241 ratio
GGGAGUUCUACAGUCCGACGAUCUUUUCUGCAUCAAAAGACCACCGUCAAGAAGUCACAGUAAUAGAGUUCCAAGAGGCUAUUUUGGCUUGUAAAACCCCAAAGAAGACUACCUCCUCCAGACUGGAGUGGAAGAAGGUGGGACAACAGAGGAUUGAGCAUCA: 0.616 ratio
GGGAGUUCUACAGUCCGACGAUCUAACUUAUUUUUCGUUAAAGUUUGACUGAAACACGCUUCUACCAAAUACAGUAUAAAUAAUUAGGUAGUCUUAAUGCCUUUCCUAUUUUUUUUUCCUUUUCACACAAAAUGUACACAAAGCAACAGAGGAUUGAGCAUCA: 10.5 ratio
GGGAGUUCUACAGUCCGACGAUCAUGGCAUACCACCACGACAGCAGGCGGAUAUUUGUGGGCCAGGAUAAUGGGGCUGUGAUGGAAUUUCACGUUUCUGAAGAUUUUAAUAAAAUGAAUUUUAUCAAGACCUAUCCAGCCCACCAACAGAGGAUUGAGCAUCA: 0.234 ratio
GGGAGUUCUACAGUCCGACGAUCGGCACAUGCCUGCCAGCGUUGUGUCAUGCCUGUCCACAGGGGAUUCGUGGGGCUCACUUCAUCAGAGUUUGAAGCCCAAAUGAAACGCUGAAGUGACUGAGAACCUGGCUUCAGUAUAUUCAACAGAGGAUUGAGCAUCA: 0.0762 ratio
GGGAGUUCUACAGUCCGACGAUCUUGUUUACUGUAAGUUUGAAAAUAAAAAUGAAGAAAAAAAUUCCAAUGACUGUGCUGUGGUUGGAGACUUUAUUUACCAAGAUGUUUACUCUUCCUUUCCCCUUCCAUUUUGAGGAGCUGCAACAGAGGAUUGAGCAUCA: 0.171 ratio
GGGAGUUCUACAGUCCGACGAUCUUAGAAUGUGAAUUCUAUCUGUUAGAACUAAUGGAUUGUUGCUUGAUAGUGUAUCAUCCUUAUAGACCUUUGCUCCAGUAUGUGCAGGACAUGGGCCAAGAAGACAUGUUGCUUCCCCUUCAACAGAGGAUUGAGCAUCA: 0.316 ratio
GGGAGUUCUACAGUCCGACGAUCACAAAUUCUAAGUCGGAGGAAGACAAGCAGCUAGCCAAUUCUUUAGAGAGCGUAGGGCCAAUAGAUUACAUUCUCCCAAGCUGUGGGAUUAUUGUGUCAGCACCUCGAUUAGGCAGUCGGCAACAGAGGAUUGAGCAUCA: 0.813 ratio
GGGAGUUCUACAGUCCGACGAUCAAAUGAAGGUACAUAUACAUGAUCUGAGUAACCAUUUCCUCUGUGGCCAAUCUGUAUGCUUUUAGAAGUUUACAAAACUGCUUUGGUUUUUGUCUGUAACCAUCUCUGUCAUCCCAAUAACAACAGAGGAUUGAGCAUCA: 0.389 ratio
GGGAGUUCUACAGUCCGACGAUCUUCAGCCAAGCCAGACAGGAUGUCCUGAAGAGGAGCAUGUUGGGUUUUUUUGUUUGUUUGUUUGUUUUCCUAUCGCAGUGCAUUGUGGGUACUCCACACCCAAAGGGUCCUCUGGUGAAGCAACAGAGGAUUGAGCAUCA: 0.235 ratio

Set 2
Target: Histone acetyltransferase KAT6A, winged helix 2, GST fusion (KAT6A, Homo sapiens, UniProt Q92794, residues 85-181)
Method: protein binding microarray
Molecule type: double-stranded DNA, one strand shown
Sample: in vitro
Concentration: not given
Setting: 8-mer, flanks averaged, mean of 2 arrays, mostly near background
Reference: not given
Direction: higher = stronger binding
Quantity: E-score
Residues (chain): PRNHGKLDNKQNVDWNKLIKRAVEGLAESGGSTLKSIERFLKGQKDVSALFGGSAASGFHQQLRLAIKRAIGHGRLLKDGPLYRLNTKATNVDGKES
CGCCCCTA: 0.0369
CTCGGAAC: 0.108
GCTAGGTA: -0.097
AAATTAAG: 0.0072
AGCGCCCC: 0.0621
AACACCGC: 0.073
GATGGCGA: -0.00278
AATCTGAG: -0.0411
CGCCCTTC: 0.139
ATTTTGAG: 0.208
ACGCAAGT: 0.0606
AAGTAAAT: -0.146
CTGATTCA: 0.0239
ACGCAATC: -0.0676
ACATTAAG: -0.0399
CATAGGGA: -0.0389

Set 3
Target: Sal-like protein 4, full length isoform B (SALL4, Homo sapiens, UniProt Q9UJQ4-2, residues 1-616)
Method: universal PBM
Molecule type: double-stranded DNA, one strand shown
Sample: in vitro
Concentration: not given
Setting: 8-mer, flanks averaged, mean of replicates
Direction: higher = stronger binding
Quantity: E-score
CCAAGGTC: -0.136
CATAGGGG: -0.153
GAGGGTCC: -0.328
GACGGGAA: -0.0556
AAGTTCCT: -0.0436
ACAAGCGG: -0.0695
CTCTCGGA: -0.131
CAAAGGGC: -0.295
GGTATCCA: -0.0205
GAAGCCTC: -0.197
GGCGGCCC: -0.407
CTTATGAA: 0.252
AGCATGCC: -0.11
ACCGTTCC: -0.134
GAACTAAC: -0.0699
AAGGGGTG: -0.237
GCGACCAC: -0.239

Single results of other studies
PhoQ, residues 284 288 289 292 302 303 ALSMDL — fold induction (PhoP, residues 12 14 15 18 19 GMGLL (Escherichia coli, UniProt P23836); Sort-seq, item: YFP reporter; E. coli; PhoQ-PhoP variant library, with: 10 µM Mg2+; reference: high Mg2+ state, higher = stronger signaling): 1.98

Repeated from above (set 2):
CTCGGAAC: 0.108
GCTAGGTA: -0.097
AAATTAAG: 0.0072
AGCGCCCC: 0.0621
AACACCGC: 0.073
